Experimental data collected from several papers.
Protocols differ between the studies behind these lines. Several values in a cell are separate wells, animals, samples, runs or records. ± marks the error that the study gave.

O=C(CN1CCOCC1)Nc1ccc([C@H]2[C@@H](F)[C@@H](F)C[C@@H](F)[C@H]2F)cc1 — hepatic clearance (hepatocyte stability; cryopreserved rat hepatocytes; 1 µM): 13 mL/min/kg
C/C(N)=N/C(=N\S(=O)(=O)c1ccc(C(F)(F)F)cc1)N1C[C@H](c2ccccc2)C(c2ccc(Cl)cc2)=N1 — AUC(0-inf) (beagle dog, plasma; oral, 12 mg/kg): 21500 ng·h/mL
Fc1ccc(OCC2CN(Cc3ncc4ccccn34)CCC2(F)F)cc1 (centres unmarked) — fu (equilibrium dialysis; mouse plasma): 0.0001
CN(C)c1cccc(-c2ccc(C3CCCCC3)cc2)c1 — hepatic clearance (liver microsome stability; rat liver microsomes; 1 µM): 41 mL/min/kg
O=C(N1CCCCC1)C12CC(c3ccccc3)(C1)C2(F)F — compound remaining (metabolic stability; human, liver microsomes; 2 µM, 25 min, pH 7.4): 84%
O=C(Nc1ccc(C2CCCCC2)cc1)C1(N2CCOCC2)CC1 — hepatic clearance (liver microsome stability; mouse liver microsomes; 1 µM): 81 mL/min/kg
C=CC(=O)Nc1cc(Nc2nccc(-c3c[nH]c4ccccc34)n2)c(OC)cc1N(C)CCN(C)C — recovery (storage stability; human dried blood spots; 24 h, -80 °C, medium QC level): 88.7%
C=C1C[C@]2(C(=O)OC)C=C(C(=O)Nc3cccc(C(=O)Nc4ccc(Nc5nccc(-c6cccnc6)n5)c(C)c4)c3)C(=O)[C@H]1C2 — compound remaining (Wistar rat, male, plasma; 10 µM, 30 min): 1.03% and 1.85%
C=Cc1ccccc1[B-]12OC(=O)C(c3ccccc3)=N[N+]1=C(C)c1ccc(N(CC)CC)cc1O2 (centres unmarked) — fluorescence quantum yield (toluene): 0.5
O=C(NC1CCOCC1)c1ccc([C@H]2[C@@H](F)[C@@H](F)C[C@@H](F)[C@H]2F)cc1 — hepatic clearance (liver microsome stability; mouse liver microsomes; 1 µM): 14 mL/min/kg
O=C(Nc1cnccc1-c1ccc([18F])nc1)c1ccnc(NC(=O)C2CC2)c1 — mean SUV (ex vivo gamma counting; FVB/NJ mice, both sexes, caudate nucleus; intravenous, 120 min): 0.026
NS(=O)(=O)c1cccc(-c2ccc([C@H]3[C@@H](F)[C@@H](F)C[C@@H](F)[C@H]3F)cc2)c1 — hepatic clearance (liver microsome stability; cynomolgus liver microsomes; 1 µM): 12 mL/min/kg
COc1cccc(OC)c1-c1cc(C(=O)NC2(C(=O)O)C3CC4CC(C3)CC2C4)nn1-c1ccc(C(=O)N(C)CCOCCN(C)C(=O)[C@H](CCCCNC(=O)[C@H](CC(C)C)NC(=O)C2OC2C(=O)O)NC(=O)CN2CCN(CC(=O)[O-])CCN(CC(=O)[O-])CCN(CC(=O)[O-])CC2)cc1C(C)C.[177Lu+3] (mixture of isomers) — tumour-to-bone ratio (mouse, HT-29 xenograft; 72 h post injection, biodistribution; reference: tumour over bone uptake): 2.46
COC1C=COC2(C)Oc3c(C)c(O)c4c(c3C2=O)C2=NC3(CCN(CC(C)C)CC3)NC2=C(NC(=O)C(C)=CC=CC(C)C(O)C(C)C(O)C(C)C(OC(=O)Nc2cnccn2)C1C)C4=O (centres unmarked) — fAUC/MIC ratio (CD-1 mouse, plasma; oral, dose not given, efficacy dose): 173
C=C(NC(=O)c1csc(-c2nc3c(cc2O)-c2nc(cs2)C(=O)NC(C(C)O)C(=O)NC(=C(C)OC)c2nc(cs2)C(=O)NC2c4nc(cs4)C(=O)NC(COC(=O)c4c5c6c(cccc6n4O)COC(=O)C(OC4CC(C)(O)C(N(C)C)C(C)O4)C2OC5)c2nc-3cs2)n1)C(N)=O (centres unmarked) — MRT(0-t) (ICR mice, Streptococcus pneumoniae ATCC 49169 infected, immunocompromised, blood; intravenous, 16 mg/kg/day once daily): 4.56 h
OC1(C(F)(F)F)CCN(c2nc(Nc3ccnc(C(F)(F)F)c3)nc(-c3cccc(C(F)(F)F)n3)n2)C1 (centres unmarked) — Cmax (monkey, plasma; oral, 3 mg/kg): 905 ± 161 ng/mL
COCC1CN(C2CCN(c3cc(OC)c(Nc4ncc(Br)c(Nc5ccc6c(c5P(C)(C)=O)OCCO6)n4)cc3C)CC2)C1 — t1/2 (EGFR-mutant NSCLC patients, plasma; oral, 60 mg single dose, geometric mean): 34.5 h

Excerpt of the above:
COCC1CN(C2CCN(c3cc(OC)c(Nc4ncc(Br)c(Nc5ccc6c(c5P(C)(C)=O)OCCO6)n4)cc3C)CC2)C1 — t1/2 (EGFR-mutant NSCLC patients, plasma; oral, 60 mg single dose, geometric mean): 34.5 h
